{"data": "Measured values from different studies", "note": "Each numbered part is a random draw from the data of one study; scales do not carry over between parts."}
{"data": "Sample 1", "target": "Interferon regulatory factor 5, full length, phosphomimetic (IRF5, Homo sapiens, UniProt Q13568-2, residues 1-514, K96S/S451D/S453D/S456D/S462D)", "method": "protein-binding microarray", "form": "double-stranded DNA, one strand shown", "medium": "in vitro", "concentration": "250 nM", "notes": "60-bp whole probe", "added": "salmon DNA 0.4 mg/ml", "baseline": "random background probes", "direction": "higher = stronger binding"}
{"Oligonucleotide": "GCCTAGCACTCATTTCTCCTTTCCAAACTGTGCTAGGTCTTGATTCGCTTGACGCTGCTG", "log fluorescence [z-score]": 1.94}
{"Oligonucleotide": "GCCTAGCACGACGGTATCGGATTGGGGACGTGCTAGGTCTTGATTCGCTTGACGCTGCTG", "log fluorescence [z-score]": 1.54}
{"Oligonucleotide": "GCCTAGCACGACGGTTTCGGTATCGGCACGTGCTAGGTCTTGATTCGCTTGACGCTGCTG", "log fluorescence [z-score]": 9.58}
{"data": "Sample 2", "target": "Sal-like protein 4, full length isoform B (SALL4, Homo sapiens, UniProt Q9UJQ4-2, residues 1-616)", "method": "universal PBM", "form": "double-stranded DNA, one strand shown", "medium": "in vitro", "concentration": "not given", "notes": "8-mer, flanks averaged, mean of replicates", "direction": "higher = stronger binding"}
{"Oligonucleotide": "ATTTGCGC", "E-score": -0.0282}
{"Oligonucleotide": "CGATGTCC", "E-score": -0.224}
{"Oligonucleotide": "AGGAAGAA", "E-score": 0.0544}
{"data": "Sample 3", "target": "Histone acetyltransferase KAT6A, winged helix 1, GST fusion (KAT6A, Homo sapiens, UniProt Q92794, residues 1-85)", "method": "protein binding microarray", "form": "double-stranded DNA, one strand shown", "medium": "in vitro", "concentration": "not given", "notes": "8-mer, flanks averaged, mean of 2 arrays, mostly near background", "baseline": "not given", "direction": "higher = stronger binding", "Residues (chain)": "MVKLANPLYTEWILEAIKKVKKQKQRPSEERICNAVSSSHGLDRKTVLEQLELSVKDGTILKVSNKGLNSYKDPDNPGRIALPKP"}
{"Oligonucleotide": "TATTAACA", "E-score": -0.0255}
{"Oligonucleotide": "AGCGCATC", "E-score": 0.281}
{"Oligonucleotide": "GCTGCGAA", "E-score": -0.0708}
{"Oligonucleotide": "GGAATGCA", "E-score": -0.17}
{"data": "Mixed results"}
{"Substance": "PhoQ, residues 284 288 289 292 302 303 SACGEM", "target": "PhoP, residues 12 14 15 18 19 LYHSL (Escherichia coli, UniProt P23836)", "test": "Sort-seq, item: YFP reporter", "system": "E. coli", "setting": "PhoQ-PhoP variant library, added: 10 µM Mg2+", "scale": "baseline: high Mg2+ state, higher = stronger signaling", "measurement": "fold induction", "result": 23.9}
{"note": "For quick reference, copied from above (sample 1):"}
{"Oligonucleotide": "GCCTAGCACTCATTTCTCCTTTCCAAACTGTGCTAGGTCTTGATTCGCTTGACGCTGCTG", "log fluorescence [z-score]": 1.94}
